Experimental data collected from several papers.
Parts stem from different laboratories: compare values within a part only. Substitutions count along the parent as printed.

Sample 1
Target: ABI1, truncated, D143A, DHFR fusion (Arabidopsis thaliana)
Method: DHFR PCA, deep sequencing
Matrix: yeast
Setting: methotrexate growth selection, single substitutions
Together with: (+)-ABA 710 µM
Baseline: wild-type fitted maximum
Direction: higher = stronger binding
Starting sequence: PYL1, truncated, DHFR fusion (Arabidopsis thaliana); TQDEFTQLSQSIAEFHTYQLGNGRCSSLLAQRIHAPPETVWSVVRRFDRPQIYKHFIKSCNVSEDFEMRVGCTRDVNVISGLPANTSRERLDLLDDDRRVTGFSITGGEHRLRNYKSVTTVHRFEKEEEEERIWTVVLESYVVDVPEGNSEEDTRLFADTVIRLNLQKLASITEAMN
Substitution | relative binding score [%]
E147S | 97.2
I57T | 77.7
C72D | 107
Y53D | 4.35
T119Q | 97.2
R24N | 108
M176S | 103
T120H | 25.2
V44T | 74.4
N77C | 105
E131H | 112
R113D | 101
S63K | 101
Q2L | 96
K54W | -8.3
L91H | 2.56
E64T | 104
R74V | -14.5
E67M | 98.2
T120M | 24.2
N61R | 106
V145L | 92.7
E89W | 13.9
F66I | 93.5
L112H | -40.7

Sample 2
Target: Ras GTPase-activating protein-binding protein 1, full length (G3BP1, Homo sapiens, UniProt Q13283)
UniProt Q13283, sequence (whole entry, looked up): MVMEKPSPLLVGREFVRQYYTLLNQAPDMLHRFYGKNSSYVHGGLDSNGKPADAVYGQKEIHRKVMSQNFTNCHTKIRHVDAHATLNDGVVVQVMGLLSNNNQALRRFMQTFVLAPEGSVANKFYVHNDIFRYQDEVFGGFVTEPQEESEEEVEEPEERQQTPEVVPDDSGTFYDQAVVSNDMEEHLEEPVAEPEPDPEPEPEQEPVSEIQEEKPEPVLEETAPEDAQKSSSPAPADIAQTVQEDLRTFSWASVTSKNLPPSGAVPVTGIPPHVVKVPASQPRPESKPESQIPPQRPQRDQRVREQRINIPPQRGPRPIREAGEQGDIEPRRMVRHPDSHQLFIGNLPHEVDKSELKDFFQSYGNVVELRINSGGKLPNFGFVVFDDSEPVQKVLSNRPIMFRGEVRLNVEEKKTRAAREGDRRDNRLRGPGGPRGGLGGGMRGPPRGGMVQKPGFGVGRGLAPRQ
Method: RNA Bind-n-Seq
Molecule type: RNA
Matrix: in vitro
Concentration: 200 nM
Setting: whole 134-nt RNA, ends assumed
Together with: 150 mM KCl
Baseline: input library
Direction: higher = stronger binding
Constant ends, left off below: GGGAGUUCUACAGUCCGACGAUC … UGGAAUUCUCGGGUGUCAAGG
Oligonucleotide | log2 enrichment
UAACUUUAGAGGAGGAUUUGAUGGAUAUGGCAGUGGACGUGGAUUUGGGGAUGGCUAUAAUGGGUAUGGAGGAGGACCUGGAGGUGGCAA | 0.359
UGUUGCCGUGUGUCUCACCCUACCAUUUCAGAAAAAUGUUCGUUGGUGGCCUGAGCUGGGAUACUAGCAAAAAAGAUUUAAAAGACUAUU | -2.09
CAAGUCCUGUGCUACACAUCGUAUGUACCGAAUCGGGUUUUUUUGGGUGGGAGGGAAAGUAUUAUGUUACGCCGUUCGGAUCUGCACUUC | 0.562
UAACUUUAGAGGAGGAUCUGAUGGAUAUGGCAGUGGACGUGGAUUUGGGGAUGGCUAUUAUGGGUAUGGAGGAGGACCUGGAGGUGGCAA | 0.413
GUCCUGUGCUACACAUCGUAUGUACCGAAUCGGUUUUUUUGGAAAAAGGAAAAAAAGGAAAGUAUUAUGUUACGCCGUUCGGAUCUGCAC | -1.06
UCCUCAAGUCCUGUGCUACACAUCGUAUGUACCGAAUCGGAGGUUUGGAGGAAAGUAUUAUGUUACGCCGUUCGGAUCUGCACUUCCAGC | -0.704
CCUGUGCUACACAUCGUAUGUACCGAAUCGGGGUUUUUGGGGAAAGGGGAAAAAAAGGGGAAAGUAUUAUGUUACGCCGUUCGGAUCUGC | 0.189
AAGUCCUGUGCUACACAUCGUAUGUACCGAAUCGGUUUUUUUGGUUUUUGGUUUGGAAAGUAUUAUGUUACGCCGUUCGGAUCUGCACUU | -1.33
UGUGGGUCCUCCUGCACCUGGUGCUGGCCUUCCUGUCCCUGCGCUCUUUGACAGCCUCCUGACCUGUAGGACGAGGGAUUCCUUGUUCUU | -0.596
ACCAUGCAGGUGGGCAUCUUUGGGAAGUGGGGCAAGGGGGGGAUAGGAAAGGGGGUAACACUUUGGGAACAGGUGGUCCCAGGUCGUUUC | 0.99
GUAGCUGCUCCAGUGGGCCCAGUGGGCCCCACUCCUACAGUUUUGCCCAUGGGAGCCCCUGUUCCCCGGCCUCGUGGUCCCCCACCGCCC | -0.0103
AAAUAUCAGUGAUCAUCGCAAGGAAGGAGGCAGACAAGAGUAAGGCACACCUGACUCUUAGGACUAGCAGUCAGAACCAGGAGGAAAGGU | -0.179
GCAGGAAGUAAAAACAAAUGGAAAUGCUUCGGAUAGUGGCAGGGGUGGGGGUUGCUAAGGAAAGGGAGGGAUGGGAGUGGGUAAAGAGUU | 0.972
GCAGGAAGUAAAAACAAAUGGAAAUGCUUCGGAUAGUAAAAGGGGUGGGGGUUGCUAAGGAAAGGGUGGGAUGGGAGUGGGUAAAGAGUU | 0.603

Sample 3
Target: RNA binding protein fox-1 homolog 2, RRM domain, GST-SBP tag (RBFOX2, Homo sapiens, UniProt O43251-10, residues 100-194)
Method: RNA Bind-n-Seq
Molecule type: RNA
Matrix: in vitro
Concentration: 365 nM
Setting: natural RNA segment, single round, ends assumed
Baseline: no-protein control
Direction: higher = stronger binding
Constant ends, left off below: GGGAGUUCUACAGUCCGACGAUC … UGGAAUUCUCGGGUGCCAA
Construct (chain): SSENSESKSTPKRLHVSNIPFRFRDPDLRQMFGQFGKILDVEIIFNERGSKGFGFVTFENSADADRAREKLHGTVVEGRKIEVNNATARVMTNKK
Oligonucleotide | RBNS enrichment (R)
AGUCAGAGGCACCAAGUCUAACUCUCAGCAUUUUUCCAAUAAAUGUUCUCCCUUGGCCCCUCUCCUGGCCACCACAAAGCUCCUUUUCUAAACUGUCCUGGGCAGAAGUC | 0.537
GGCAUCACACCUGCCUCUGUUGGCUUUUUAGUUAGGAAGGAUCCAGCUAGGCCCGUGUGGUUAGAUCAGCUUUGUUACUGAAUUACCUAAAACCAGACCACAGCACAGCC | 0.42
AGGGACAGUGAACACAUUUUGGUUCCUAUCCCAGUGGGUAAGAGGCACUUAUCUCUGGGAAAUUUGCCUCUCUUGGGACUCUCCCCCUCCCAGGCAUUUUCCAUUCCUGG | 0.281
GAGGUACUGCAAUAGAGUAUUUCAAAAUGGAAUCAGGAUCUGGUGGGCCUCAGAAAUUGUCUCUUUUCUGAGUUUCAAUUUGGUUCUCCUGGAUGUUUUGCUCUGUUUUG | 0.456
GCCAGCCUCCAGUGCUGUCGAGAGACCACCUUCCCCCGACCCGGAGGCACUUCCUUGGGGUCUUUCUCUAGGGUCUCUUCUCUACAAAGCACAACACUAAUGUUCGUUUC | 0.29
UAUGUAUGAAAAAUGAUCCUAGCCUUACACUGAGUACAAUAAUACUUAUAAGCAUGUGAAGAUGUGAUCUUUGUGAUGUUACUUGUACAAACAUAUAUACAUAUCUAUAC | 10.8
GGGGCAGGAGGUGGGGUGGAAAUAGGGUGGGCUCCUUUCCUCAGGUAGAGUGGGGGGCCAAAACCUCUGCAGUCCCCGGCAGUGAGCUAUGGACUUUCUUCCCCCUCACA | 0.531
GCCCUACCUUCUUUCUUGUUUGAUUGAUUUAGACACACUGGUGCUCUUACAGGUGGAGAAUGAGUGUUUGAUGGAUAUAGGUAAGCAUAUUUAUUUGACAGCUAUGAGGA | 1.78
UGUCCCAAACUGGCCCACCAAUGAGCAUGGCGGCUCCGGCCAGGAAUGCCAGAGUUAGCCUCCCAGGCUUGCGGGUGGACAUGCCUGCUCCCUGCCAGCCUCCAGUGGCC | 2.91
ACAAGCCACCCCUCCUGAGAGGCAGGGGGCCCUCCGCCCCCUCCCCAUGUAUUCCCCACCUGUGUUCCGUUUGACCAGCACAGAAAUAUUAAACGUCCUCUAUUCACCGG | 0.538
UGGAAGGGAACUGGGCCUCGGUGGCCGGGGCCGCGAGCUGUGACCACAGCACCCUCAAGCAUACGGCGCUGUUCCUGCCACUGUCCUGAAGAUGUGAAUGGGUGGUACGA | 0.66
GUGAUUAUUUUCCUAAAUACAAAGACAAAUAAUUUACUUAUUUUAUGUUAAUUACGGGCAUGAAGCAAAAGGUUUCUUUGGGGAACAUGCAGUUUUGUAGUGCUGGGGUU | 1.26

Sample 4
Target: CCNF, cyclin fold, Cln2 fusion (human)
Method: yeast growth competition, sequencing
Matrix: yeast
Setting: strong parent motif
Baseline: not given
Direction: higher = stronger binding
Starting sequence: CDC6 docking peptide (human); TLKGRRLVFDNQL
Substitution | normalised enrichment score
L7K | 1.95
R6A | 6.57
N11G | 7.91
N11C | 8.94
L13R | 8.37
V8E | 7.97
G4C | 8.22
R5G | 0.395
T1I | 8.53
N11Q | 9.09
Q12S | 8.09
F9G | 0.283
G4P | 8.08
F9P | 0.854
Q12A | 9.3
D10N | 8.11
N11D | 8.27
L13D | 7.69
T1V | 10
R6I | 5.53
G4K | 4.27
R5A L7A | 0.218
K3Y | 8.23
R5W | -0.52
K3N | 6.84

Repeated from above (sample 2):
Oligonucleotide | log2 enrichment
CCUGUGCUACACAUCGUAUGUACCGAAUCGGGGUUUUUGGGGAAAGGGGAAAAAAAGGGGAAAGUAUUAUGUUACGCCGUUCGGAUCUGC | 0.189
GUAGCUGCUCCAGUGGGCCCAGUGGGCCCCACUCCUACAGUUUUGCCCAUGGGAGCCCCUGUUCCCCGGCCUCGUGGUCCCCCACCGCCC | -0.0103
GCAGGAAGUAAAAACAAAUGGAAAUGCUUCGGAUAGUAAAAGGGGUGGGGGUUGCUAAGGAAAGGGUGGGAUGGGAGUGGGUAAAGAGUU | 0.603
GCAGGAAGUAAAAACAAAUGGAAAUGCUUCGGAUAGUGGCAGGGGUGGGGGUUGCUAAGGAAAGGGAGGGAUGGGAGUGGGUAAAGAGUU | 0.972
